# Measured values gathered from unrelated publications.
# ± marks the error that the study gave.
# Target: fMet-Leu-Phe receptor (FPR1, Homo sapiens, UniProt P21462)
Molecule,observed,mode,cell line,measurement,result
C[C@H](CCC(=O)O)[C@H]1CC[C@H]2[C@@H]3[C@H](O)C[C@@H]4C[C@H](O)CC[C@]4(C)[C@H]3CC[C@]12C,calcium signal,,,IC50,19.9 µM
CCCCCCN1C(=O)C(O)=C(C(=O)c2ccc(C)cc2)C1c1ccc(OC)cc1OC (stereo not drawn),calcium signal,antagonist,,IC50,3.7 µM
(+)-episesamin,calcium flux,agonist,HL-60 cells transfected with FPR1,EC50,54.8 ± 5.2 µM
COc1ccc(C2(CNC(=O)[C@](C)(Cc3c[nH]c4ccccc34)NC(=O)Nc3ccc([N+](=O)[O-])cc3)CCCCC2)nc1,calcium mobilization,agonist,HL-60 cells expressing FPR1,EC50,0.33 ± 0.12 µM
CC1=NN(CC(=O)Nc2ccc(Br)cc2)C(=O)CC1c1ccccc1 (racemic),calcium signal,agonist,,EC50,4.1 µM
CCCN1C(=O)C(O)=C(C(=O)c2ccccc2)C1c1cc(OC)ccc1OC (stereo not drawn),calcium signal,antagonist,,IC50,1.5 µM
CC1(C)CC[C@]2(C(=O)O)CC[C@]3(C)C(=CC[C@@H]4[C@@]5(C)CC[C@H](O)C(C)(C)[C@@H]5CC[C@]43C)[C@@H]2C1,calcium signal,,,IC50,14.5 µM
COCCN1C(=O)C(O)=C(C(=O)c2ccccc2)C1c1cc(OC)ccc1OC (stereo not drawn),calcium signal,antagonist,,IC50,1.7 µM
CC1=NN(CC(=O)Nc2ccc(Br)cc2)C(=O)CC1C (racemic),calcium signal,agonist,,EC50,13 µM
